# Measured values of several laboratories.
# Parts stem from different laboratories: compare values within a part only. Positions count from the first letter of the parent shown.

# Set 1 — target: CCNB2, cyclin fold, Cln2 fusion (human); method: yeast growth competition, sequencing; medium: yeast; setting: weak parent motif; baseline: not given; reading: higher = stronger binding
# Parent: BORA docking peptide (human); SSLRRKLFLDGNG
Change,normalised enrichment score
L7A,-0.0743
R5K,0.966
G13A,0.442
S2A,0.765
N12A,1.22
L9F,0.841
G11A,0.497
R4A,0.767

# Set 2 — method: protein binding microarray; form: double-stranded DNA, one strand shown; medium: in vitro; concentration: not given; baseline: not given; reading: higher = stronger binding
# Target: Histone acetyltransferase KAT6A, winged helix 1, GST fusion (KAT6A, Homo sapiens, UniProt Q92794, residues 1-85)
# Setting: 8-mer, flanks averaged, mean of 2 arrays, mostly near background
# Target sequence (chain): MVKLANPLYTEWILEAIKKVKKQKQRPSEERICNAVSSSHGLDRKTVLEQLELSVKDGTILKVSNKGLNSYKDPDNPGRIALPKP
Strand,E-score
CAAGCATA,-0.182
ATGTAACC,0.224
ACATGCGC,0.304
GAACCGTA,0.248
CTAAATGA,-0.139
ATACTTGA,-0.349
CCTTCTTA,-0.0852
CGCTTAAC,0.184
AAGAGCGT,0.206
TCAACCAA,-0.218
CCCTCCTA,-0.113
ATTATTAC,0.0899
AGACATAA,-0.0274
CTTATAAA,-0.101
CGATGGGA,0.111
ATCCGAGG,-0.016
ACCAGCCG,0.219
CAAAAGGG,-0.137

# Set 3 — method: aptamer microarray, sandwich; form: DNA with 2'F-ANA; medium: in vitro; concentration: 200 nM; with: Cy3 exosite-II aptamer, 400 nM; reading: higher = stronger binding; strand: GGTTGGTGTGGTTGG
# Target: Prothrombin, mature alpha-thrombin (F2, Homo sapiens, UniProt P00734)
# Setting: whole 15-mer aptamer, many near background
Modification,mean fluorescence intensity
2'F-ANA at 2 3 5 6 7 9 10 11 12,71.1 a.u.
2'F-ANA at 1 3 4 5 6 8 9 14,44.8 a.u.
2'F-ANA at 5 7 10 13 14 15,42.7 a.u.
2'F-ANA at 6 10 12 15,199 a.u.
2'F-ANA at 1 5 10 12 13 15,47.8 a.u.
2'F-ANA at 1 5 6 8 9 11 14,57 a.u.
2'F-ANA at 3 4 5 6 9 10 14 15,59 a.u.
2'F-ANA at 1 4 5 6 7 8 10 12 14,81.5 a.u.
2'F-ANA at 1 4 5 8 10 14,44.1 a.u.
2'F-ANA at 6 7 11 14,187 a.u.
2'F-ANA at 2 4 5 6 7 9 12 13 15,78.3 a.u.
2'F-ANA at 1 6 7 8 10 12 13 14 15,91.9 a.u.
2'F-ANA at 1 4 5 6 8 9 10 11 13 15,63.6 a.u.
2'F-ANA at 1 3 5 7 8 9 11 14 15,52 a.u.
2'F-ANA at 1 2 4 5 6 8 10 11 13 14,55 a.u.
2'F-ANA at 1 2 4 6 7 10 11 12 13 15,60.6 a.u.

# Set 4 — method: RNA Bind-n-Seq; form: RNA; medium: in vitro; concentration: 1 µM; setting: whole 134-nt RNA, ends assumed; with: 150 mM KCl; baseline: input library; reading: higher = stronger binding
# Target: Ras GTPase-activating protein-binding protein 1, C-terminal RGG region (G3BP1, Homo sapiens, UniProt Q13283)
# UniProt Q13283, sequence (whole entry, looked up): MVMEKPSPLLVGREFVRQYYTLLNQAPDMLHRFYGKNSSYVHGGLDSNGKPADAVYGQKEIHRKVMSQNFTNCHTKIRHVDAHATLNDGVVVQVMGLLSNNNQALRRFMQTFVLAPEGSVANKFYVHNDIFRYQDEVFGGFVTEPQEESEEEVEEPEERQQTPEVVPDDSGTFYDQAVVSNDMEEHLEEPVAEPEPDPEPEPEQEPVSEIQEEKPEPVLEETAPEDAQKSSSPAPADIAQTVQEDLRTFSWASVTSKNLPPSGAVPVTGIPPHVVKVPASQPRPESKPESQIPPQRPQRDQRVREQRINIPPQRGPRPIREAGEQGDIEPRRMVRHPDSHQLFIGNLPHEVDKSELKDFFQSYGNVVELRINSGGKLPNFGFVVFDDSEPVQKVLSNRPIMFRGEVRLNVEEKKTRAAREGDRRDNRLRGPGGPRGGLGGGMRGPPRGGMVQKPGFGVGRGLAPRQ
# All sequences stand within: GGGAGUUCUACAGUCCGACGAUC … UGGAAUUCUCGGGUGUCAAGG
Strand,log2 enrichment
GCAGGAAGUAAAAACAAAUGGAAAUGCUUCGGAUAGUGGCAGGGGUGGGGGUUGCUAAGGAAAGGGUGGGAUGGGACUGGGUAAAGAGUU,1.65
CACAGACAACACGCACCCACACAGACACAGAGGGAAGGGGUUGGGAUGGGGACAGGGUGCACAGCAGGGCGGGGUAGGACCCCUGCCCCU,-1.01
GCAGGAAGUAAAAACAAAUGGAAAUGCUUCGGAUAGUGGCAGGGGUGGGGGUUGCUAAGGAAAGGGUGGGAUGGGAAUGGGUAAAGAGUU,2.25
UCCUGUGCUACACAUCGUAUGUACCGAAUCGGGGUUUUUGGGGAAAGGGGAAAAAGGGGAAAGUAUUAUGUUACGCCGUUCGGAUCUGCA,1.83
UCCUGUGCUACACAUCGUAUGUACCGAAUCGGGGAAAAAGGGGUUUUUGGGGAAAGGGGAAAGUAUUAUGUUACGCCGUUCGGAUCUGCA,1.63
GAAAAUUUCUCAGUUCUUAAGAAUGCUUGCUGUGGGUAUAGUGCAGGUAUAUUGAAAGGAAUUUUUUUCUUGCAGCGGGAAAGAGACAUG,-1.61
CUCAAGUCCUGUGCUACACAUCGUAUGUACCGAAUCGGGGCCGGGCCGGGCCGGAAAGUAUUAUGUUACGCCGUUCGGAUCUGCACUUCC,-1.62
UGGCCGGUGGCCGUGAGAACACGCUGUGUGGCUGAAAAGUGAAGGCAAGAGCUGAUUUGGCCUCUGUGCUCCCCUCCGCAAGGGGAUCGU,-0.551
CCUCAAGUCCUGUGCUACACAUCGUAUGUACCGAAUCGGGCGGGGCGGCGGGGAAAGUAUUAUGUUACGCCGUUCGGAUCUGCACUUCCA,0.224
GCAGGAAGUAAAAACAAAUGGAAAUGCUUCGGAUAGUGGCAGGGGUGGGGGUUGCUAAGGAAAGGGUGGGAUGGGAGUGGAAAAAGAGUU,1.85

# Set 5 — method: DHFR PCA, deep sequencing; medium: yeast; with: (+)-ABA 0.11 µM; baseline: wild-type fitted maximum; reading: higher = stronger binding
# Target: ABI1, truncated, D143A, DHFR fusion (Arabidopsis thaliana)
# Setting: methotrexate growth selection, single substitutions
# Parent: PYL1, truncated, DHFR fusion (Arabidopsis thaliana); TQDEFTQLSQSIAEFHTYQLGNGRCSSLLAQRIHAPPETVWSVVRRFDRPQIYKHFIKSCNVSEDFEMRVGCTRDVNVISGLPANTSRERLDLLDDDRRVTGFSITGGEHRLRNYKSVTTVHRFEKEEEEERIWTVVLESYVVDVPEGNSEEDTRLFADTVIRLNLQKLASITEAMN
Change,relative binding score
Q10C,13%
E127C,41.4%
D3Y,38.4%
D97R,21.2%
R98T,-6.75%
S63A,55.9%
A13I,12.2%
E4Y,24%
R123K,61.9%
R46P,2.24%
D95G,-7.82%
M68I,33.2%

# Other studies, line by line
Molecule,target,test,system,setting,how to read,measurement,result
"PhoQ, residues 284 288 289 292 302 303 AGCYAI","PhoP, residues 12 14 15 18 19 VQALL (Escherichia coli, UniProt P23836)","Sort-seq, refers to: YFP reporter",E. coli,"PhoQ-PhoP variant library, with: 10 µM Mg2+","baseline: high Mg2+ state, higher = stronger signaling",fold induction,24.2

# A few entries again (other studies, line by line):
Molecule,target,test,system,setting,how to read,measurement,result
"PhoQ, residues 284 288 289 292 302 303 AGCYAI","PhoP, residues 12 14 15 18 19 VQALL (Escherichia coli, UniProt P23836)","Sort-seq, refers to: YFP reporter",E. coli,"PhoQ-PhoP variant library, with: 10 µM Mg2+","baseline: high Mg2+ state, higher = stronger signaling",fold induction,24.2
